# Measured values from different studies.
# Compare with care: the assays were run in different laboratories. Numbers after ± are the reported error.
# Sample: plasma
SMILES,assay,test system,setting,Cmax
CCCCCCCCCCCCCCCC(=O)N[C@@H](CCCCN)C(=O)N[C@@H](CCCCN)C(=O)N[C@@H](CO)C(=O)N[C@@H](CCCNC(=N)N)C(=O)N[C@@H](C)C(=O)N[C@@H](CC(C)C)C(=O)N[C@@H](Cc1ccccc1)C(N)=O,UHPLC-MS/MS,human patients,"intravenous, 0.3 mg/kg over 2 h",1430 ng/mL
CC[C@H](C)[C@@H]1NC(=O)[C@H](Cc2ccc(O)cc2)NC(=O)CCCSC[C@@H](C(=O)N(CC(=O)N[C@@H](CC(C)C)C(=O)NCC(N)=O)Cc2ccc(F)cc2)NC(=O)[C@H](CC(N)=O)NC(=O)[C@H](CCC(N)=O)NC1=O,,healthy human,"intranasal, 400 µg every 3 h, after second dose",0.26 ng/mL
Cc1[nH]c(=O)c(CNC(=O)c2cc(Cl)c3c(c2C)O[C@@](C)([C@H]2CC[C@H](N(C)C)CC2)O3)c(C)c1O,LC-MS/MS,human male,"oral, 200 mg, single dose, metabolite of valemetostat, added: [14C]-valemetostat",471 ng/mL
CCCCCCCOc1ccc(CC[C@](N)(CO)COP(=O)(O)O)cc1C(F)(F)F,,healthy male humans,"oral, 0.75 mg amiselimod, day 1, mean",1.76 ng/mL
COc1cc2c(cc1OC)[C@H]1C[C@@H](O)[C@H](CC(C)C)CN1CC2,measured: non-deuterated analyte,healthy human male,"oral, 25 mg, geometric mean, [14C]-tetrabenazine dosed",17.6 ng/mL
C[C@H](CCC(=O)NCC(=O)O)[C@H]1CC[C@H]2[C@@H]3[C@H](O)C[C@@H]4C[C@H](OS(=O)(=O)O)CC[C@]4(C)[C@H]3CC[C@]12C,,human,"concentration not given, endogenous baseline diurnal",154 ± 24 nM
Cc1cc(F)ccc1-c1cc(N2C[C@H]3COC(O)CN3C[C@H]2CO)ncc1N(C)C(=O)C(C)(C)c1cc(C(F)(F)F)cc(C(F)(F)F)c1 (stereo partly drawn),,human,"oral, 120 mg, geometric mean",128 ng/mL
C[C@]12C[C@H](c3ccc(S(C)(=O)=O)cc3)C3=C4CCC(=O)C=C4CC[C@H]3[C@@H]1CC[C@@]2(O)C(F)(F)C(F)(F)F,,human,"oral, 5 mg multiple doses, day 28",30 ng/mL
CN(C(=O)C(C)(C)c1cc(C(F)(F)F)cc(C(F)(F)F)c1)c1cnc(N2C[C@H]3COC(O)CN3C[C@H]2CO)cc1-c1ccc(F)cc1CO (stereo partly drawn),,human,"oral, 120 mg, geometric mean",91.3 ng/mL
CC1(C)CC[C@]2(NC(=O)C(C)(F)F)CC[C@]3(C)[C@H](C(=O)C=C4[C@@]5(C)C=C(C#N)C(=O)C(C)(C)[C@@H]5CC[C@]43C)[C@@H]2C1,geometric least squares mean,human,"oral, dose not given, added: itraconazole",119 ng/mL
COc1cc2c(cc1O)CCN1C[C@@H](CC(C)C)[C@H](O)C[C@H]21,measured: non-deuterated analyte,healthy human male,"oral, 25 mg, geometric mean, [14C]-tetrabenazine dosed",2.73 ng/mL
CC(C)C[C@H](NC(=O)[C@H](CCCN)NC(=O)CNC(=O)[C@@H](NC(=O)[C@H](C)NC(=O)[C@@H]1CSCSC[C@H](NC(=O)CC[C@H](N)C(=O)O)C(=O)N[C@@H](CC(N)=O)C(=O)N[C@@H]([C@@H](C)O)C(=O)N[C@@H](C)C(=O)N[C@@H]([C@@H](C)O)C(=O)N1)[C@@H](C)O)C(=O)N[C@@H](C)C(=O)N[C@@H](CCC(=O)O)C(=O)N[C@@](C)(Cc1ccccc1)C(=O)N[C@@H](CC(C)C)C(=O)N[C@H](C(=O)N[C@@H](CCCNC(=N)N)C(=O)N[C@@H](CO)C(=O)N[C@@H](CO)C(=O)N[C@@H](CC(N)=O)C(=O)N(C)[C@@H](CC(N)=O)C(=O)N[C@@H](Cc1ccccc1)C(=O)NCC(=O)N1CCC[C@H]1C(=O)N[C@@H](CCCCNC(=O)CC[C@H](NC(=O)CC[C@H](NC(=O)CCCCCCCCCCCCCCCCCCC(=O)O)C(=O)O)C(=O)O)C(=O)N[C@@H](CC(C)C)C(=O)N1CCC[C@H]1C(=O)N1CCC[C@H]1C(=O)N[C@H](C(=O)N[C@@H](CCC(=O)O)C(=O)N[C@H](C(=O)NCC(=O)N[C@@H](CO)C(=O)N[C@@H](CC(N)=O)C(=O)N[C@H](C(=O)N[C@@H](Cc1ccc(O)cc1)C(N)=O)[C@@H](C)O)C(C)C)[C@@H](C)O)C(C)C,,healthy human,"subcutaneous, 0.4 mg single dose, geometric LS mean",37.6 ng/mL
CC(CCC(=O)NCC(=O)O)C1CCC2C3CCC4CC(OC5OC(C(=O)O)C(O)C(O)C5O)CCC4(C)C3CC(O)C12C (stereo not drawn),,human,"concentration not given, endogenous baseline diurnal",223 ± 47 nM
CCOc1cc(CC(=O)N[C@@H](CC(C)C)c2ccccc2N2CCCCC2)ccc1C(=O)O,,human,"oral, dose not given, geometric least-squares mean, alone",20.6 ng/mL
C[C@]12C[C@H](c3ccc(S(C)(=O)=O)cc3)[C@@H]3C4=C(CC[C@H]3[C@@H]1CC[C@@]2(O)C(F)(F)C(F)(F)F)C(=O)[C@H](O)CC4,,human,"oral, 5 mg multiple doses, day 28",3.68 ng/mL

# A few entries again:
SMILES,assay,test system,setting,Cmax
CCCCCCCOc1ccc(CC[C@](N)(CO)COP(=O)(O)O)cc1C(F)(F)F,,healthy male humans,"oral, 0.75 mg amiselimod, day 1, mean",1.76 ng/mL
COc1cc2c(cc1OC)[C@H]1C[C@@H](O)[C@H](CC(C)C)CN1CC2,measured: non-deuterated analyte,healthy human male,"oral, 25 mg, geometric mean, [14C]-tetrabenazine dosed",17.6 ng/mL
